Measurements gathered from unrelated publications.
Lines come from different studies, so protocols differ. Numbers after ± are the reported error.

Compound	test	system	conditions	scale	quantity	result
COC(=O)[C@@]1(C)C=C(C(=O)Nc2cccc(C(=O)Nc3ccc(Nc4nccc(-c5cccnc5)n4)c(C)c3)c2)C(=O)CC1	metabolic stability	Wistar rat, male, primary hepatocytes	1 µM, 30 min	–	compound remaining	21.2%
C=C[C@]1(C)C[C@@H](OC(=O)CSc2ccc(NC(=O)c3ccco3)cc2)[C@]2(C)[C@H](C)CC[C@]3(CCC(=O)[C@H]32)[C@@H](C)[C@@H]1O	–	M. gallisepticum-infected chickens, plasma	intramuscular, 5 mg/kg single dose	–	elimination half-life	4.21 h
O=C(NCCOc1ccc(F)cc1)c1ccc([C@H]2[C@@H](F)[C@@H](F)C[C@@H](F)[C@H]2F)cc1	liver microsome stability	cynomolgus liver microsomes	1 µM	–	hepatic clearance	12 mL/min/kg
OC[C@H]1O[C@H](Sc2ccc(Cl)c(Cl)c2)[C@H](O)[C@@H](n2cc(-c3cc(F)c(F)c(F)c3)nn2)[C@H]1O	–	rat, Sprague-Dawley, plasma	1.0 mg/kg, free drug solution	–	t1/2	0.333 h
CCCCCCCOc1ccc(CC[C@](N)(CO)COP(=O)(O)O)cc1C(F)(F)F	–	healthy male humans, plasma	0.75 mg amiselimod, day 1, mean	–	AUCtau	25.6 ng·h/mL
CCn1cc(-c2cc(Cn3ccnc3)cc3c2CCN([C@H](c2cc(OC)ccn2)C2CC2)C3=O)c(C(F)(F)F)n1	–	CD-1 mouse, male, plasma	oral, 10 mg/kg	–	AUC extrapolated	0.6%
C=CC(=O)Nc1cc(Nc2nccc(-c3cn(C)c4ccccc34)n2)c(OC)cc1N(C)CCNC	storage stability	human dried blood spot	2 h, on ice, LQC level	–	recovery	104%
O=C(Nc1cnccc1-c1ccc([18F])cc1)c1ccnc(NC(=O)C2CC2)c1	–	FVB/NJ mouse, both sexes, brain	intravenous, 5 min	–	SUV	0.92
O=C(CC(F)(F)F)Nc1ccc(C2CCCCC2)cc1	hepatocyte stability	cryopreserved rat hepatocytes	1 µM	–	hepatic clearance	48 mL/min/kg
COc1cccc(OC)c1-c1cc(C(=O)NC2(C(=O)O)C3CC4CC(C3)CC2C4)nn1-c1ccc(C(=O)N(C)CCCN(C)C(=O)[C@H](CCCCNC(=O)[C@H](CC(C)C)NC(=O)C2OC2C(=O)O)NC(=O)CN2CCN(CC(=O)[O-])CCN(CC(=O)[O-])CCN(CC(=O)[O-])CC2)cc1C(C)C.[177Lu+3] (mixture of isomers)	–	mouse, HT-29 xenograft	4 h post injection, biodistribution	reference: tumour over bone uptake	tumour-to-bone ratio	12.7
c1cc(C2CCCCC2)ccc1-c1cnc(N2CCOCC2)nc1	liver microsome stability	human liver microsomes	1 µM, without NADPH	–	hepatic clearance	10 mL/min/kg
C=C(NC(=O)c1csc(-c2nc3c(cc2O)-c2nc(cs2)C(=O)NC(C(C)O)C(=O)NC(=C(C)OC)c2nc(cs2)C(=O)NC2c4nc(cs4)C(=O)NC(COC(=O)c4c5c6c(cccc6n4O)COC(=O)C(OC4CC(C)(O)C(N(C)C)C(C)O4)C2OC5)c2nc-3cs2)n1)C(N)=O (stereo not shown)	–	Sprague-Dawley rat, female, plasma	intravenous infusion, 18 mg/kg single dose	–	volume of distribution	27.8 L/kg
N#CCNC(=O)c1ccc(C2CCCCC2)cc1	hepatocyte stability	cryopreserved mouse hepatocytes	1 µM	–	hepatic clearance	76 mL/min/kg
CCCC[C@H](OC(C)=O)c1ccccc1C(=O)O	–	Sprague-Dawley rats, both sexes, whole blood	intravenous, 5 mg/kg single dose	–	MRT(0-t)	2.1 ± 0.4 h
O=C(CN1CCCCC1)Nc1ccc([C@H]2[C@@H](F)[C@@H](F)C[C@@H](F)[C@H]2F)cc1	–	human liver microsomes	1 µM, without NADPH	–	hepatic clearance	3.9 mL/min/kg
CCC1=[N+]2N=C(/C=C/c3ccccc3)C(=O)O[B-]2(c2ccccc2)Oc2cc(N(CC)CC)ccc21 (stereo not shown)	–	toluene	–	–	fluorescence lifetime	2.12 ns

A few entries again:
Compound	test	system	conditions	scale	quantity	result
O=C(NCCOc1ccc(F)cc1)c1ccc([C@H]2[C@@H](F)[C@@H](F)C[C@@H](F)[C@H]2F)cc1	liver microsome stability	cynomolgus liver microsomes	1 µM	–	hepatic clearance	12 mL/min/kg
N#CCNC(=O)c1ccc(C2CCCCC2)cc1	hepatocyte stability	cryopreserved mouse hepatocytes	1 µM	–	hepatic clearance	76 mL/min/kg
